Results gathered from unrelated publications.
Protocols differ between the studies behind these lines. ± gives the spread as reported.

By UniProt entry, the sequences of proteins in these tests, tags left out. Residues count along the entry.
UniProt P37136, 32-614 limits assumed: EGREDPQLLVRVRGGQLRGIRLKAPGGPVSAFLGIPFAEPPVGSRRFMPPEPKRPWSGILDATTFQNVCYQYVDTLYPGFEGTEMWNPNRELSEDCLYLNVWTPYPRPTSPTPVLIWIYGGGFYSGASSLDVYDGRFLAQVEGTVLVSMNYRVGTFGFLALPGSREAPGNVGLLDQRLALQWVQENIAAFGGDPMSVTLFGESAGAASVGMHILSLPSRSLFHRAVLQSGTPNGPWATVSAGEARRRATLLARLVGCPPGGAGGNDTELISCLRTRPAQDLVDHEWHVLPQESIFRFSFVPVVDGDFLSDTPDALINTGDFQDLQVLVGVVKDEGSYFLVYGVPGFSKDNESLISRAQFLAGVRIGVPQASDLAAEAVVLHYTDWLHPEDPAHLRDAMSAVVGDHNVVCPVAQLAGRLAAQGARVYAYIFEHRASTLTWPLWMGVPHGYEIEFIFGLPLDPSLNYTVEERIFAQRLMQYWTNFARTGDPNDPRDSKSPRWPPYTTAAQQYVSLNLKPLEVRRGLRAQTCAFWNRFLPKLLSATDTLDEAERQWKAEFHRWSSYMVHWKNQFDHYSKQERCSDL
UniProt Q3XYE8, 1-234: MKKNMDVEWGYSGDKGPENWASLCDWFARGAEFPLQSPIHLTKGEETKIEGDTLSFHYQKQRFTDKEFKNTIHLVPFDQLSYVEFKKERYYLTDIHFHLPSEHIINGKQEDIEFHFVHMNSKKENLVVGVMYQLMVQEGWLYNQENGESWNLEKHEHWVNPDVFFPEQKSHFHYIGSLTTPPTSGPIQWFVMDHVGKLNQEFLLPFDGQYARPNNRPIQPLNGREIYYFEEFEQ
UniProt P0DKX7, 1-373 limits assumed: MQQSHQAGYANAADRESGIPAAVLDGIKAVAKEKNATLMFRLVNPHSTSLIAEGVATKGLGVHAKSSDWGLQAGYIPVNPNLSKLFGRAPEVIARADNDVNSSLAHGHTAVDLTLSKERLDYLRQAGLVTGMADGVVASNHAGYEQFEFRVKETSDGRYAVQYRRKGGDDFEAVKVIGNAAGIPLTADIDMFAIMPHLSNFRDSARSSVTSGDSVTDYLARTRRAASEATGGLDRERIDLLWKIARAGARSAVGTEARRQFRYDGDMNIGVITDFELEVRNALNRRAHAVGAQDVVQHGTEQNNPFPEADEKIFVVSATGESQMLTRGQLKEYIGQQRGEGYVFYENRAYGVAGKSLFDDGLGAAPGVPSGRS
UniProt P54292, whole entry: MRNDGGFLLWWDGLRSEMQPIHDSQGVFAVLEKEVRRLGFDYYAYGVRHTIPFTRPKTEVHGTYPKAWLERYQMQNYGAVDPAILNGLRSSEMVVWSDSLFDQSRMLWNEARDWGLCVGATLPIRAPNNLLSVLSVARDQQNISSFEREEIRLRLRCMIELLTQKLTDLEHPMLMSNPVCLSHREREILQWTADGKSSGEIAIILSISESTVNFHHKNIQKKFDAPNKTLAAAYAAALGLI
UniProt P30926, 22-498 limits assumed: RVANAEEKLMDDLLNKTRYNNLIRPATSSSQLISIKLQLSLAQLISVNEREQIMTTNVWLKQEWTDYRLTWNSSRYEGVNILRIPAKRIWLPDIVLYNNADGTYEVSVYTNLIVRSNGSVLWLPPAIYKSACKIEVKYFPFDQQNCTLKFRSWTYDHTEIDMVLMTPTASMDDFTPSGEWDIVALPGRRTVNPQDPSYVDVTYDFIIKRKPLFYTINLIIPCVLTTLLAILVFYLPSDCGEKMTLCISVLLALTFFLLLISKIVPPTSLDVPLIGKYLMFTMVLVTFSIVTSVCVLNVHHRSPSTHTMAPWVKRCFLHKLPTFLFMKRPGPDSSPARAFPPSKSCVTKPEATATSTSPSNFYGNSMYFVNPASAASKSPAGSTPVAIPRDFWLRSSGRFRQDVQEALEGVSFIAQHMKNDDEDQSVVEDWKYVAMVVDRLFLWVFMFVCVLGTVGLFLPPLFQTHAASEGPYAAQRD
UniProt P43681, 29-627 limits assumed: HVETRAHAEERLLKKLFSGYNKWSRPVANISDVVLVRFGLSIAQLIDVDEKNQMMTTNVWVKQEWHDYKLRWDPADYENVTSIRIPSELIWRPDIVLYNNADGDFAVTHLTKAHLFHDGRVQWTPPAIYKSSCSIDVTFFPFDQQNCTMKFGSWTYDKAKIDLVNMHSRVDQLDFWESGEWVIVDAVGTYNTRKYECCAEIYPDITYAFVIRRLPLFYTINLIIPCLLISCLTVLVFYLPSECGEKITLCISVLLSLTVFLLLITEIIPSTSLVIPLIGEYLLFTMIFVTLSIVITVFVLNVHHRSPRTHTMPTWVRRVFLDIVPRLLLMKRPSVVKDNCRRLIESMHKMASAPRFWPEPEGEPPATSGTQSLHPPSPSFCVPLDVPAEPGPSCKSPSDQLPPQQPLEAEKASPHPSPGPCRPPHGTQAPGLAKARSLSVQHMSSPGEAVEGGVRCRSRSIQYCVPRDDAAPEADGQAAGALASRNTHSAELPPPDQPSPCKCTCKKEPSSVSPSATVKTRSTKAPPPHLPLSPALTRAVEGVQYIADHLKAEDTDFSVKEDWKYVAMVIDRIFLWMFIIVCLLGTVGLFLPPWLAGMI
UniProt P55210, whole entry, looked up: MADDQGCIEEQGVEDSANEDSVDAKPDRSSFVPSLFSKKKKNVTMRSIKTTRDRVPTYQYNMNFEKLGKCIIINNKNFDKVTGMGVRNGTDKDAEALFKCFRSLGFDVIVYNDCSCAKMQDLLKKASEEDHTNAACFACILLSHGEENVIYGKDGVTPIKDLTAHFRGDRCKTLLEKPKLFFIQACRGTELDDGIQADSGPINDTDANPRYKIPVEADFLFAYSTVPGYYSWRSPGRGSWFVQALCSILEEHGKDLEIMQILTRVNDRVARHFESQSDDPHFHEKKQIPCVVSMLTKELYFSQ
UniProt H0V073, 1-176: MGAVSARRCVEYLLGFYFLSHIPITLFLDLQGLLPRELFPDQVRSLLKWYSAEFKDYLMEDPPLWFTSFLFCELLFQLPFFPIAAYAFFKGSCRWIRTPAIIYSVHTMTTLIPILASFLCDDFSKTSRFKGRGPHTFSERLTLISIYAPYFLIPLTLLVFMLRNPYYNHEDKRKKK
UniProt P60752, whole entry D512G: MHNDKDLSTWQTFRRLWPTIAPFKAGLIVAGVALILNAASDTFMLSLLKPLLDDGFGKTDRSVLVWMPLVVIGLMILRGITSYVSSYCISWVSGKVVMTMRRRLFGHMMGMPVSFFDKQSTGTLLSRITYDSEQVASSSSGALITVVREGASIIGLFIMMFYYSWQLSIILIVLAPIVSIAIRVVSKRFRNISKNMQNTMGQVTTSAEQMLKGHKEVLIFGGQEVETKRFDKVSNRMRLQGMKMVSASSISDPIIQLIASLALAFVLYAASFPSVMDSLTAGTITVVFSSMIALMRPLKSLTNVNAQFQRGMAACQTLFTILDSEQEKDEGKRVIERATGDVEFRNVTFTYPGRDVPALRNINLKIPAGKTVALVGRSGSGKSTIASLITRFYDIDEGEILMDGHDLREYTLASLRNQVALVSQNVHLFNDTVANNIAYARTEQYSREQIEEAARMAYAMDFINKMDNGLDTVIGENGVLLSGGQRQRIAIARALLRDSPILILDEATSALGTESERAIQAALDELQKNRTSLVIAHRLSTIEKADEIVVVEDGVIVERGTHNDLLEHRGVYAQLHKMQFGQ
UniProt P20035, whole entry: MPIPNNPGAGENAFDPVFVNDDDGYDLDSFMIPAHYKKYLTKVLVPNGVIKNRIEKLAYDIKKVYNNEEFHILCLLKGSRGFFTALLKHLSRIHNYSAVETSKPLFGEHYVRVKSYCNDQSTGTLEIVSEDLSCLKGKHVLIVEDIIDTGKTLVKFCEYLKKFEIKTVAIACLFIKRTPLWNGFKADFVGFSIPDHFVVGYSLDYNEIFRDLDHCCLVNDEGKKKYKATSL

COP(=O)(OC)Oc1ccc([N+](=O)[O-])cc1Cl has an IC50 of 0.139 µM (Ache (Rattus norvegicus, UniProt P37136); enzyme activity, inhibitor; rat, postnatal day 70, rat brain homogenate; 15 min, 37 °C).
NCCCCCC(=O)Nc1nnc(S(N)(=O)=O)s1 has a Ki of 0.0259 µM (alpha-carbonic anhydrase (Enterococcus faecium, UniProt Q3XYE8); CO2 hydration, inhibitor, stopped-flow kinetics).
The Ki of CNc1ccccc1C(=O)O[C@H]1[C@@H](O)[C@H](n2cnc3c(=O)[nH]cnc32)O[C@@H]1COP(=O)(O)OP(=O)(O)OP(=O)(O)O is reported as 1 ± 0.04 µM (cya, adenylate cyclase domain (Bordetella pertussis, UniProt P0DKX7); inhibitor).
O=C(N[C@H]1CCOC1=O)C1CCCC1 gave an EC50 of 1.22 µM (rhlR (Pseudomonas aeruginosa, UniProt P54292); reporter gene, agonist, rhlI-gfp reporter; PAO-JP2).
With CC[C@H](C)[C@@H]1NC(=O)[C@H](CCC(=O)O)NC(=O)[C@@H]2CCCN2C(=O)[C@H](Cc2c[nH]cn2)NC(=O)[C@H](CCCNC(=N)N)NC(=O)[C@H](C(C)C)NC(=O)[C@H](CC(N)=O)NC(=O)[C@@H]2CSSC[C@H](NC(=O)CN)C(=O)N[C@@H](CSSC[C@@H](C(N)=O)NC1=O)C(=O)N[C@@H](CO)C(=O)N[C@@H](Cc1c[nH]cn1)C(=O)N1CCC[C@H]1C(=O)N[C@@H](C(C)C)C(=O)N2 the IC50 was 4.01 µM (Neuronal acetylcholine receptor; alpha4/beta4 (Homo sapiens, UniProt P30926+P43681); ion current, antagonist, two-electrode voltage clamp; Xenopus oocytes; human, with: ACh 300 µM).
CNC(=O)[C@H]1[Se][C@@H](n2cnc3c(NCc4cccc5ccccc45)ncnc32)[C@H](O)[C@@H]1O has a Ki of ~0.2 µM (ADORA2A (Homo sapiens, UniProt P29274); binding; HEK293 membranes; with: [3H]CGS21680 10 nM).
For Cc1cn([C@@H]2CC[C@H](OC(C(=O)O)P(=O)(O)O)C2)c(=O)[nH]c1=O (relative stereo), the IC50 was > 500 µM (DNA polymerase beta (POLB, Homo sapiens, UniProt P06746); enzyme activity, inhibitor; with: activated calf thymus DNA).
CCOC(=O)c1c(-c2ccc(Cl)cc2Cl)n(-c2nc(-c3ccc(Cl)cc3)c3c(NC(=O)c4ccccc4)nnc-3[nH]2)[nH]c1=O has a CC50 of > 100 µM (K562; SRB).
The Km of CC(C)[C@H](NC(=O)CNC(=O)[C@H](CCC(=O)O)NC(=O)[C@@H](NC(=O)[C@H](CCC(=O)O)NC(=O)[C@H](CC(=O)O)NC(=O)CCNC(=O)Cc1cc(=O)oc2cc(N)ccc12)C(C)C)C(=O)N[C@@H](CCCCNc1ccc([N+](=O)[O-])cc1[N+](=O)[O-])C(=O)N[C@@H](CC(=O)O)C(N)=O is reported as 15.7 µM (Caspase-7 (CASP7, Homo sapiens, UniProt P55210); substrate; pH 7.2).
COc1cc2c(cc1OC)N(CCCCNC(=O)c1cc(Br)cc(OC)c1OC)CCCC2 gave a Ki of 8.96 ± 0.335 µM (Sigma-2 receptor (Cavia porcellus, UniProt H0V073); binding; brain membranes; (+)-pentazocine masking, with: [3H]DTG 500 nM).
Nc1ncnc2c1ncn2[C@@H]1O[C@H](COP(=O)(O)OP(=O)(O)OP(=O)(O)O)[C@@H](Oc2c([N+](=O)[O-])cc([N+](=O)[O-])cc2[N+](=O)[O-])[C@H]1O has a Kd of 0.81 ± 0.15 µM (msbA (Escherichia coli, UniProt P60752, D512G); fluorescence titration; pH 7, no Mg added, 0.01% DM, 10% glycerol).
With N#Cc1c(-c2ccc(Cl)cc2Cl)n(-c2nc(-c3ccc(Cl)cc3)c3c(NC(=O)c4ccccc4)nnc-3[nH]2)[nH]c1=O the CC50 was > 100 µM (SR; SRB).
With O=c1[nH]cnc2c(CNCCCP(=O)(O)O)c[nH]c12 the Ki was 0.01 µM (Hypoxanthine-guanine-xanthine phosphoribosyltransferase (Plasmodium falciparum, UniProt P20035); enzyme activity, competitive inhibitor, spectrophotometric).

Excerpt of the above:
CCOC(=O)c1c(-c2ccc(Cl)cc2Cl)n(-c2nc(-c3ccc(Cl)cc3)c3c(NC(=O)c4ccccc4)nnc-3[nH]2)[nH]c1=O has a CC50 of > 100 µM (K562; SRB).
